Results from different studies.
A part holds a random share of what one study measured. Changes are numbered by the printed parent chain.

Study 1 — technique: aptamer microarray, sandwich; form: DNA with 2'F-ANA; sample: in vitro; tested at: 200 nM; together with: Cy3 exosite-II aptamer, 400 nM; direction: higher = stronger binding; endpoint: mean fluorescence intensity; oligonucleotide: GGTTGGTGTGGTTGG
Target: Prothrombin, mature alpha-thrombin (F2, Homo sapiens, UniProt P00734)
Notes: whole 15-mer aptamer, many near background
2'F-ANA at 3 4 5 6 9 12 14: 51.1 a.u.
2'F-ANA at 1 4 5 7 8 10 11 12 13: 52.1 a.u.
2'F-ANA at 3 4 8 9 11 13 15: 531 a.u.
2'F-ANA at 2 3 4 6 7 8 10 13 14: 166 a.u.
2'F-ANA at 2 5 6 12 13 14: 49.2 a.u.
2'F-ANA at 1 2 3 9 11 13 14: 69.7 a.u.
2'F-ANA at 1 3 5 7 8 13 14 15: 45.8 a.u.
2'F-ANA at 1 2 3 5 6 7 8 9 11 12: 124 a.u.
2'F-ANA at 3 4 5 6 9 11 12: 155 a.u.
2'F-ANA at 1 5 6 10 15: 47.3 a.u.
2'F-ANA at 1 2 3 4 5 11 12: 135 a.u.
2'F-ANA at 3 4 6 10 11 12 13: 243 a.u.
2'F-ANA at 1 6 8 9 12 15: 431 a.u.
2'F-ANA at 3 4 7 10 11 13: 230 a.u.
2'F-ANA at 3 4 5 6 7 12 14: 55.1 a.u.
2'F-ANA at 5 6 14: 43.7 a.u.
2'F-ANA at 2 3 4 7 11 13: 504 a.u.
2'F-ANA at 1 2 3 5 6 12 13 14: 49.8 a.u.
2'F-ANA at 1 2 3 9 10 11 12 13 14: 52.2 a.u.
2'F-ANA at 1 3 7 9 11 12 13 14 15: 103 a.u.
2'F-ANA at 1 5 11 13 14: 42.7 a.u.
2'F-ANA at 1 4 5 6 10 11 12 13: 48.9 a.u.
2'F-ANA at 1 4 6 7 9 10 11 12 14: 50.6 a.u.
2'F-ANA at 1 5 6 7 9 10 11 12 15: 50.4 a.u.
2'F-ANA at 3 5 11 12 13 14: 60.4 a.u.

Study 2 — target: CCNE2, cyclin fold, Cln2 fusion (human); technique: yeast growth competition, sequencing; sample: yeast; notes: weak parent motif; relative to: not given; direction: higher = stronger binding; endpoint: normalised enrichment score
Starting sequence: MICAL3 docking peptide (human); LQLRRQLSFSEDS
F9V: -0.114
F9H: -0.336
Q6W: 0.351
R4F: 0.0789
F9R: 0.525
L7A: 0.157
Q6P: 0.0674
L3R: 0.29
S8I: 0.7
Q6S: -0.181
L3A: 2.11
Q2G: 0.0151
L3Q: -0.0233
S8K: 0.423
L3M: 0.458
D12H: 0.384
R5P: 0.0628
L7Y: 0.293
S10F: 0.537
Q2I: -0.00944
F9Y: 0.071
R4A: 0.391
E11A: 0.553
F9A: 0.253
D12P: 0.852

Study 3 — technique: RNA Bind-n-Seq; form: RNA; sample: in vitro; tested at: 365 nM; relative to: no-protein control; direction: higher = stronger binding; endpoint: RBNS enrichment (R)
Target: RNA binding protein fox-1 homolog 2, RRM domain, GST-SBP tag (RBFOX2, Homo sapiens, UniProt O43251-10, residues 100-194)
Notes: natural RNA segment, single round, ends assumed
Residues (chain): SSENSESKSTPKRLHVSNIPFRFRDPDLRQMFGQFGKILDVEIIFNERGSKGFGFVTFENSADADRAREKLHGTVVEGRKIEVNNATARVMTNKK
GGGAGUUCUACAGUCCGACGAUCUCCUAGUUUUAUAACAUUACCAUCCUUCGUUUUGAACUACAGAUGUUGUAGUGGGUUUUGGAGGAGGGAGUGGAGUAAGAUGCCCUCCCACUUUUAUCAGUUUAGUAGUAUGGAAUUCUCGGGUGCCAA: 1.18
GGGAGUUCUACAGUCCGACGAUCGGGUCCUGUGCAUUUGCCACAGUGGAAGACUACCUACAUUAGCUAUGCACUUCAAGAGCUCACACUCACAUUGUGGCAAACAGUCAACAUGGAAGUAGACCGGCUCUGCUUGGAAUUCUCGGGUGCCAA: 0.226
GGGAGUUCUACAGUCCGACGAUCUGCAGAAUGACAGCUCUUUGUUUCUGAAGUAACCAGCACACCACACUCAUGUUUAAAAGGACAAAGGGGAAUGAAGGUCAGUGAGAUCUAAAAAGUGUAUUUCUUUGCCAUGGAAUUCUCGGGUGCCAA: 1.22
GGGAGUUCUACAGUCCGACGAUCGGGUCUCAGCUCCUGGAGUCGCAGGCCCUUGGGGCCCCUCUGUGAGAUCUCAAUGCUGUCUGGGGACCCUAAGAGUUUUCUCACCUGUUCAGUCUCAUCUAACCUUCCAAUGGAAUUCUCGGGUGCCAA: 0.422
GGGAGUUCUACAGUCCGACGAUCUCUGUCUGGUCCGAGAUGACCCUCUGGUCCAGGCCUCGCUGACACUUUUGUUCUCAGCUUCUGCCAUCUGUGACUACUGAUAUCCUGGAUGGACACCUUGCUGGACUUGAUGGAAUUCUCGGGUGCCAA: 0.223
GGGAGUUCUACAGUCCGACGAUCUUACCCUUCUCACUCACCAGGCCCACAGUCGCCUGCACUCAGUGCUGUUUGUAACACAUCUGUUAUUCUGCCUACCUGUACUUUUUGCUGCCCAUCCCUGUUGCCUUUGAUGGAAUUCUCGGGUGCCAA: 0.656
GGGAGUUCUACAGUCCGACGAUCAAUUCCAACCUCUAAGUCGGGGAAAGGUGACAGGUUUCCUGGUGCUGGUGUGCACAGGGGCAGGCAGGUCAGCUGGCCUGGGGAAGAGCAUUGUGGCUCCUAGUGCAGCCUGGAAUUCUCGGGUGCCAA: 0.588
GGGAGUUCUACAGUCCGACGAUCUCUUCACCACUGGACUGCGGGAGGCGGCUGCACCAGGCCCUCAGUGGAGCGCUGCUGUGACCACUGCCCUGGGCAGAAGGCCUGGAUGUCUCACUACUGAGCACCGAUGUUGGAAUUCUCGGGUGCCAA: 0.393
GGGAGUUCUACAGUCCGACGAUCAUGGUCUUUCUAAAUGAUUAAAGAAAUCAUUUGCGUUGGUUCUUGUUUUUUGUGUUUUCCCUCUAUUUUCAACCAAAUCCUAGAGCCAGCUGAGACUGCUGAGUAAUCUGUGGAAUUCUCGGGUGCCAA: 0.415
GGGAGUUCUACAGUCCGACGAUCAUACCUGGUGCUGUCCCUGGGCUCUGCUGGUCAUGUGAGGCAGCCUCGGAGAAGGAAGCAGAGGGUGUAAUGACUGGCACACCUGGACAGCUUUUCUCCAUCCGCAGACAUGGAAUUCUCGGGUGCCAA: 0.683
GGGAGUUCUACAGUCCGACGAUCAUGGGUAGCUGGCUCACAUCCCCAGCCAAGCCUCGAACUGUUGACAAGACCAGGGAGAAUCCACCCAUGGGCGCCCACCAGGUUCUUAUGGAUGCAAGCAGGAGAAGCUCUGGAAUUCUCGGGUGCCAA: 0.818
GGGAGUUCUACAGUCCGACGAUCUUGGAAUCACACCCUCCGGUUAUGUUGCUCCAGUAAAAUCUUGCCUGGAAAGAGGCAGUCUUCUUAGCAUGGUGAGCUGAGUUCAUGGCUUUUUUUUGUAGCCAGUCCUGUGGAAUUCUCGGGUGCCAA: 2.38

Study 4 — technique: RNA Bind-n-Seq; form: RNA; sample: in vitro; tested at: 200 nM; notes: whole 134-nt RNA, ends assumed; together with: 150 mM LiCl; relative to: input library; direction: higher = stronger binding; endpoint: log2 enrichment; each molecule: 7-deaza-guanosine replaces G
Target: Fragile X messenger ribonucleoprotein 1, C-terminal low-complexity region (Fmr1, Mus musculus, UniProt P35922)
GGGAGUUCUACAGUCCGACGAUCACCAUGCAGGUGGGCAUCUUUGGGAAGUGGGGCAAGGGGGGGAUAGGGAGGGGGGUAACACUUUGGGAACAGGUGAAACCAGGUCGUUUCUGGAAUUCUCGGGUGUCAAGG: 1.16
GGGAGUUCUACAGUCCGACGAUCAAGUCCUGUGCUACACAUCGUAUGUACCGAAUCGGUUUGGAAAAAAAGGUUUUUGGAAAGUAUUAUGUUACGCCGUUCGGAUCUGCACUUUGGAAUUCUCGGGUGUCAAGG: -3.04
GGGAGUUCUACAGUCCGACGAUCCAAGUCCUGUGCUACACAUCGUAUGUACCGAAUCGGGAGGGUUUGGGUUUUUGGGAAAGUAUUAUGUUACGCCGUUCGGAUCUGCACUUCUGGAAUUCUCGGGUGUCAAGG: -0.375
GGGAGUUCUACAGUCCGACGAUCUCCUGUGCUACACAUCGUAUGUACCGAAUCAAACCCCCCCAAACCCAAACCCCCCCAAAAAAGUAUUAUGUUACGCCGUUCGGAUCUGCAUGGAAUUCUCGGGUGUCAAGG: 2.16
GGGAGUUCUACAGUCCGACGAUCUACAGACAACACGCACCCACACAGACACAGAGGGAAGGGGUUGGGAUGGGGACAGGGUGCACAGCAGGGCGGGGUAGGACCCCAGCCCCUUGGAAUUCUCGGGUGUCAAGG: -0.374
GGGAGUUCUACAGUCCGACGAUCCAAAAACAACACGCACCCACACAGACACAGAGGGAAGGGGUUGGGAUGGGGACAGGGUGCACAGCAGGGCGGGGUAGGACCCCAGCCCCUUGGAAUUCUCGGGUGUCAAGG: 1.11
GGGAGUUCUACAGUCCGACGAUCUCCUGUGCUACACAUCGUAUGUACCGAAUCGGGUUUGGGUUUUUUUGGGUUUUUUUGGGAAAGUAUUAUGUUACGCCGUUCGGAUCUGCAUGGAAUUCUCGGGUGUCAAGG: 0.223
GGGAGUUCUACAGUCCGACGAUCCUCAAGUCCUGUGCUACACAUCGUAUGUACCGAAUCGGCGGGGCGGGGCGGGGAAAGUAUUAUGUUACGCCGUUCGGAUCUGCACUUCCAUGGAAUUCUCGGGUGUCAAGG: 0.362
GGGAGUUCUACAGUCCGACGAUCAAGUCCUGUGCUACACAUCGUAUGUACCGAAUCGGAAAGGUUUUUUUGGUUUUUGGAAAGUAUUAUGUUACGCCGUUCGGAUCUGCACUUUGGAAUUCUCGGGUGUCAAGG: -2.96
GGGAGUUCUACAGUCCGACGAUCUCCGCGUGUGAAGUUUUUCUCGGCUGCAUCAUGGGUGCCACAUUCUUUUUGUUGUUUUCAGUGCUGCAAAAGCCCCAUAUCUGGCCAAGUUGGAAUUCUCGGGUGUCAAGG: -0.0111
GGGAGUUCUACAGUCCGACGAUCUAACUUUAGAGGAGGAUCUGAUGGAUAUGGCAGUGGACGUGGAUUUGGGGAUGGCUAUAAUGGGUAUGGAGGAGGAUCUGGAGGUGGCAAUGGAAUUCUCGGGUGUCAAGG: 0.904

A few entries again (study 1):
2'F-ANA at 3 4 5 6 9 11 12: 155 a.u.
2'F-ANA at 1 5 6 10 15: 47.3 a.u.
2'F-ANA at 1 2 3 4 5 11 12: 135 a.u.
2'F-ANA at 3 4 6 10 11 12 13: 243 a.u.
2'F-ANA at 1 6 8 9 12 15: 431 a.u.
2'F-ANA at 3 4 7 10 11 13: 230 a.u.
2'F-ANA at 3 4 5 6 7 12 14: 55.1 a.u.
2'F-ANA at 5 6 14: 43.7 a.u.
2'F-ANA at 2 3 4 7 11 13: 504 a.u.
2'F-ANA at 1 2 3 5 6 12 13 14: 49.8 a.u.
2'F-ANA at 1 2 3 9 10 11 12 13 14: 52.2 a.u.
